Measured values gathered from unrelated publications.
Compare with care: the assays were run in different laboratories. “And” joins repeats or separate records; there may be more than shown. Numbers after ± are the reported error.

Compound	cell line	assay	test system	conditions	how to read	endpoint	value
COc1cnc2cccc(N3CCc4c(cc(Cn5ccnc5C)cc4-c4cn(C)nc4C(F)(F)F)C3=O)c2c1	KMS-26	cell growth, inhibitor		120 h		EC50	12 nM
COC(=O)C1CCN(C(=O)c2ccc(N(CCCO)Cc3cnc4nc(N)nc(N)c4n3)cc2)CC1	786-O	high-content imaging, measured: MitoTracker Red uptake		10 µM		mitochondrial toxicity	-1.43%
Cc1occc(=O)c1O	primary rat hippocampal/cortical neuron-glia cultures			1 µM, together with: 1 µM α-synuclein oligomers		reversal of trafficking deficit	-9.62%
Nc1nc2[nH]cc(CCc3ccc(C(=O)N[C@@H](CCC(=O)O)C(=O)O)cc3)c2c(=O)[nH]1	HD-MB03	cell growth		168 h, DMSO		IC50	142 nM
CC(C)(c1ccc(O)cc1)c1ccc(O)cc1	HepG2 spheroids	planimetry		10 µM, 24 to 96 h	baseline: mean area of 72 h spheroids	spheroid area increase	165%
CCc1cnc(N2CCC(c3nc(COc4ccc(-n5cnnn5)cc4)cs3)CC2)nc1	HEK293T	RNA-seq, measured: CLU mRNA		10 µM, 6 h	baseline: vehicle	log2 fold change	0.19
CC(C)NCC(O)c1ccc(O)c(O)c1 (stereo not shown)	mouse ventricular cardiomyocytes			dose not given, 0.343 s		sarcomere length	1.8 µm
C[C@H](Nc1ccc2c(c1)OCCn1cc(N3C(=O)OC[C@H]3C(F)F)nc1-2)C(N)=O	HGC-27	cell growth, CellTiter-Glo		120 h		Hill coefficient GR curve	1.08
CC/C(=N\NC(=O)C(C)Nc1ccccc1)c1ccc(O)c(C)c1O (stereo not shown)	SK-OV-3	Western blot, measured: YAP		10 µM, 3 h, 2D culture, unit not given	baseline: β-actin	protein level	1.56 ± 0.05
CCn1cc(-c2cc(Cn3ccoc3=N)cc3c2CCN([C@@H](C)c2cc(OC)ccn2)C3=O)c(C(F)(F)F)n1	SW 1116	cell growth, inhibitor		120 h		EC50	> 30000 nM
Clc1nc(NCc2ccco2)c2[nH]cnc2n1	iPSC-derived cardiomyocytes	RNA-seq, measured: BCL11A chr2 exon ending 60462424		unit not given	baseline: DMSO minus compound	ΔPSI	-0.321
O=C1CCC(N2C(=O)C=C(Nc3cccc(C4(NCCc5ccc(Cl)c(C(F)(F)F)c5)CCC4)c3)C2=O)C(=O)N1 (stereo not shown)	patient-derived PDAC organoids	qPCR, measured: ZBTB11 downstream transcripts		1 µM		mRNA level	decreased
Cc1c(C)c2c(c(C)c1O)CCC(C)(COc1ccc(CC3SC(=O)NC3=O)cc1)O2 (stereo not shown)	hepatocytes, iPSC-derived, W2 line	cell viability, RealTime-Glo MT		24 h, differentiation day 23		IC50	57000 nM
Cn1cc(-c2ccc(-c3cncc(Cl)c3N3CCC4(CCNC4=O)CC3)cc2)cn1	COLO 205	gene expression, microarray, measured: CYR61 mRNA		concentration not given, 2 h	baseline: untreated cells	log2 fold change	2.04
Cc1cc(NS(=O)(=O)c2ccc(NC(=O)/C(C#N)=C/c3ccc(N4CCCCC4)cc3)cc2)no1	HCT-116	ELISA, measured: caspase-3		IC50, 48 h		protein level	4.75 ng/mg
O=C(C[C@@H](C(F)F)n1ccc(F)n1)N1CCC(O)(Cn2cnc3c(cnn3-c3ccc(F)cc3)c2=O)CC1	CHP-212 resistant	PI staining flow cytometry		0.1 µM, 24 h		cells in S phase	13.3% and 12.6% and 15.7%
CCCCc1nc(Cl)c(CO)n1Cc1ccc(-c2ccccc2-c2nn[nH]n2)cc1	human PBMC	RNA-seq, measured: CPED1 mRNA		10 µg/mL, 24 h	baseline: untreated control	log2 fold change	-2.6
CC(=O)O[C@@H]1CC[C@@]2(C)[C@@H](CC[C@]3(C)[C@@H]2C(=O)C=C2[C@@H]4[C@@H](C)[C@H](C)CC[C@]4(C)CC[C@]23C)[C@@]1(C)C(=O)O	RAW264.7	DCF fluorescence		concentration not given, 24 h, together with: LPS	baseline: LPS alone	intracellular ROS level	decreased
CN(C)C/C=C/C(=O)Nc1ccc(C(=O)Nc2cccc(Nc3ncc(Cl)c(-c4c[nH]c5ccccc45)n3)c2)cc1	HD-MB03	cell growth		DMSO		IC50	14.9 nM
CCN(CCO)CCCC(C)Nc1ccnc2cc(Cl)ccc12 (stereo not shown)	human PBMC	qRT-PCR, measured: IRF7 mRNA		1000 nM, together with: ssRNA		inhibition	6 ± 6%
CN(CCOc1ccc(NS(C)(=O)=O)cc1)CCc1ccc(NS(C)(=O)=O)cc1	primary rat hippocampal/cortical neuron-glia cultures			1 µM, together with: 1 µM α-synuclein oligomers		reversal of trafficking deficit	41.9%
CC(=O)c1n[nH]c2ccc(-c3cnc4ccc(N(C)C5CCOCC5)nn34)cc12	Fluc expressing cells			concentration not given, counter-screen		change in reporter signal	19 ± 3%
CCN1CCN(Cc2ccc(Nc3ncc(F)c(-c4cc(F)c5nc(C)n(C(C)C)c5c4)n3)nc2)CC1	HD-MB03	cell growth		168 h, single agent		IC50	1550 nM

Compound	cell line	assay	test system	conditions	how to read	endpoint	value
O=C(/C=C/C=C/C=C/C1CCCCC1)NC1=C[C@@](O)(/C=C/C=C/C=C/C(=O)NC2=C(O)CCC2=O)[C@@H]2O[C@@H]2C1=O	BXPC-3	cell growth, CellTiter-Glo		78 h		GI50	20100 nM
C=Cc1c2[n-]c(c1C)/C=c1\[n-]/c(c(C)c1C=C)=C\c1[n-]c(c(CCC(=O)O)c1C)/C=c1\[n-]c(c(C)c1CCC(=O)O)=C2.[Sn+4]	SH-SY5Y	RNA-seq, measured: ZYX		5 µM, 5 h	baseline: untreated	log2 fold change	2.61
Cn1cc(Nc2nccc(-c3ccc4c(c3)CN(C3COC3)CC[C@H]4NC(=O)c3cn(C(C)(C)C)nn3)n2)cn1	mouse splenic B cells	measured: mTOR signalling		30 mg/kg, IgD-activated in vivo	baseline: vehicle, direction not given	pathway activation z-score	2.06
CC/C(=N\NC(=O)NCc1cccc(O)c1)c1ccc(O)c(C)c1O	SK-OV-3	Western blot	3D culture in gellan gum	10 µM, 24 h, unit not given	baseline: β-actin	LATS protein level	0.6 ± 0.13
CC(=O)Nc1cccc(-n2c(=O)n(C3CC3)c(=O)c3c(Nc4ccc(I)cc4F)n(C)c(=O)c(C)c32)c1	HD-MB03	cell growth		168 h, single agent		IC50	21.2 nM
CCn1cc(-c2cc(Cn3ccnc3)cc3c2CCN([C@H](c2cc(OC)ccn2)C2CC2)C3=O)c(C(F)(F)F)n1	NCI-H2030	cell growth, inhibitor		120 h		EC50	16900 nM
CCc1c(-c2ccccc2)c(-c2ccccc2)nn1-c1ccccc1-c1cccc(OCC(=O)O)c1	mouse bone marrow macrophages	osteoclast differentiation, inhibitor, TRAP staining		1 µM, together with: M-CSF and RANKL		normalized response	61.4% and 53.1% and 52.2% and 56.2% and 61.8% and 60.3%
CCc1c2c(nc3ccc(O)cc13)-c1cc3c(c(=O)n1C2)COC(=O)[C@]3(O)CC	HD-MB03	cell growth		single agent		IC50	1 nM
COc1cc(/C=C/C(=O)N2CCC=CC2=O)cc(OC)c1OC	MDA-MB-468	qRT-PCR, measured: PUMA		30 µM, 6 h	baseline: time zero	mRNA expression	397 ± 61.5%
Cc1cccc(-c2[nH]c(CNc3ccccc3F)nc2-c2ccc3ncnn3c2)n1	bone marrow CD138+ myeloma cells	XTT	human	2 µM	baseline: untreated	relative viability	0.075
Nc1ccn([C@H]2CC[C@@H](CO)O2)c(=O)n1	primary rat hippocampal/cortical neuron-glia cultures			1 µM, together with: 1 µM α-synuclein oligomers		reversal of trafficking deficit	-16.3%
c1ccc2[nH]ccc2c1	HCT-8	RNA-seq, measured: LDLR		concentration not given		mRNA level, LS mean	56.4 counts per million
O=C1c2ccncc2C(=O)c2c1[nH]c1ccccc21	pulmonary arterial smooth muscle cells, PAH patient	no effect		concentration not given		total Drp1 protein level	no effect
Cc1cc(Nc2ncc(Cl)c(Nc3ccccc3S(=O)(=O)C(C)C)n2)c(OC(C)C)cc1C1CCNCC1	CLB-BAR	phosphoproteomics LC-MS/MS, measured: PDZD11 phosphorylation		200 nM, 60 min	baseline: untreated	log2 fold change	-2.65
Nc1cccc2c1CN(C1CCC(=O)NC1=O)C2=O (stereo not shown)	bone marrow CD138+ myeloma cells	XTT		0.8 µM, phenol red-free RPMI		viability	110%
Cc1cnc(NC2CCOCC2)nc1-n1cnc(C(=O)NC(CN)c2cc(F)cc(Cl)c2)c1 (stereo not shown)	A-375	flow cytometry		1 µM, 72 h		G2 phase cells	1%
CC[C@]1(O)C[C@@H]2CN(CCc3c([nH]c4ccccc34)[C@@](C(=O)OC)(c3cc4c(cc3OC)N(C)[C@H]3[C@@](O)(C(=O)OC)[C@H](OC(C)=O)[C@]5(CC)C=CCN6CC[C@]43[C@@H]65)C2)C1	HD-MB03	cell growth		168 h, single agent		IC50	25.1 nM
O=C(NOC[C@H](O)CO)c1ccc(F)c(F)c1Nc1ccc(I)cc1F	A-375			10 µM, 72 h		viability	11.5%
COC(=O)C1CCN(C(=O)Cc2ccc(NCc3cnc4nc(N)nc(N)c4n3)cc2)CC1	786-O	high-content imaging, measured: MitoTracker Red uptake		10 µM		mitochondrial toxicity	-2.16 ± 12.1%
CCNc1nc(Nc2cc(F)c(C(=O)N3CCOCC3)cc2OC)ncc1C(F)(F)F	HD-MB03			168 h		IC50	inactive
NC(=NCCC[C@@H](C(=O)NCc1ccccc1)n1cc(-c2ccc(-c3ccccc3)cc2)nn1)c1ccc([N+](=O)[O-])o1	mouse iBMDM	STING signalling, qPCR		concentration not given, 2 h, together with: diABZI 500 nM		IL6 mRNA level	inhibited
COc1cc([C@@H]2c3cc4c(cc3[C@@H](O[C@@H]3O[C@@H]5CO[C@@H](C)O[C@H]5[C@H](O)[C@H]3O)[C@H]3COC(=O)[C@H]23)OCO4)cc(OC)c1O	HD-MB03	cell growth		168 h, DMSO		IC50	46.2 nM
C=CCn1c(=O)c2cnc(Nc3ccc(N4CCN(C)CC4)cc3)nc2n1-c1ccc2c(n1)[C@@](O)(CC)CC2	NCI-H1048	flow cytometry		concentration not given		S phase cells	18.8%

Some of these lines once more:
Compound	cell line	assay	test system	conditions	how to read	endpoint	value
CC(=O)c1n[nH]c2ccc(-c3cnc4ccc(N(C)C5CCOCC5)nn34)cc12	Fluc expressing cells			concentration not given, counter-screen		change in reporter signal	19 ± 3%
CCN1CCN(Cc2ccc(Nc3ncc(F)c(-c4cc(F)c5nc(C)n(C(C)C)c5c4)n3)nc2)CC1	HD-MB03	cell growth		168 h, single agent		IC50	1550 nM
O=C(/C=C/C=C/C=C/C1CCCCC1)NC1=C[C@@](O)(/C=C/C=C/C=C/C(=O)NC2=C(O)CCC2=O)[C@@H]2O[C@@H]2C1=O	BXPC-3	cell growth, CellTiter-Glo		78 h		GI50	20100 nM
C=Cc1c2[n-]c(c1C)/C=c1\[n-]/c(c(C)c1C=C)=C\c1[n-]c(c(CCC(=O)O)c1C)/C=c1\[n-]c(c(C)c1CCC(=O)O)=C2.[Sn+4]	SH-SY5Y	RNA-seq, measured: ZYX		5 µM, 5 h	baseline: untreated	log2 fold change	2.61
Cn1cc(Nc2nccc(-c3ccc4c(c3)CN(C3COC3)CC[C@H]4NC(=O)c3cn(C(C)(C)C)nn3)n2)cn1	mouse splenic B cells	measured: mTOR signalling		30 mg/kg, IgD-activated in vivo	baseline: vehicle, direction not given	pathway activation z-score	2.06
CC/C(=N\NC(=O)NCc1cccc(O)c1)c1ccc(O)c(C)c1O	SK-OV-3	Western blot	3D culture in gellan gum	10 µM, 24 h, unit not given	baseline: β-actin	LATS protein level	0.6 ± 0.13
CC(=O)Nc1cccc(-n2c(=O)n(C3CC3)c(=O)c3c(Nc4ccc(I)cc4F)n(C)c(=O)c(C)c32)c1	HD-MB03	cell growth		168 h, single agent		IC50	21.2 nM
